Measurements pooled from the literature.
Compare with care: the assays were run in different laboratories. ± marks the error that the study gave.
BCHE: Cholinesterase (BCHE, Homo sapiens, UniProt P06276)
Chain of UniProt P06276 (whole entry, looked up): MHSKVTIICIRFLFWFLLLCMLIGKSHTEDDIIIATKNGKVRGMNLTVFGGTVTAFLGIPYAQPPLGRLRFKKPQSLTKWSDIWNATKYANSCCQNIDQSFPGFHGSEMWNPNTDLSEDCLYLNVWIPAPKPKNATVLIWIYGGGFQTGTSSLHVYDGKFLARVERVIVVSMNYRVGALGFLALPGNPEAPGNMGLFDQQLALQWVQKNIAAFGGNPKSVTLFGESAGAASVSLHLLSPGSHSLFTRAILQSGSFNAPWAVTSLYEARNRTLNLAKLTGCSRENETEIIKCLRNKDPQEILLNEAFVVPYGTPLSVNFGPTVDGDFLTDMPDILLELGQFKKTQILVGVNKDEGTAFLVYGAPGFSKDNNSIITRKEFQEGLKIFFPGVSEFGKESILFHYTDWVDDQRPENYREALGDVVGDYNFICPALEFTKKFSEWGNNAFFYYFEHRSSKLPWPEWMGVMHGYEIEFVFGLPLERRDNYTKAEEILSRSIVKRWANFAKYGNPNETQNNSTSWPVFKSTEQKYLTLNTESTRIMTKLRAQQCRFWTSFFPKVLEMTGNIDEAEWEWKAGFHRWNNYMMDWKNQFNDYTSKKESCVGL
Chain of UniProt Q5VYX0 (whole entry, looked up): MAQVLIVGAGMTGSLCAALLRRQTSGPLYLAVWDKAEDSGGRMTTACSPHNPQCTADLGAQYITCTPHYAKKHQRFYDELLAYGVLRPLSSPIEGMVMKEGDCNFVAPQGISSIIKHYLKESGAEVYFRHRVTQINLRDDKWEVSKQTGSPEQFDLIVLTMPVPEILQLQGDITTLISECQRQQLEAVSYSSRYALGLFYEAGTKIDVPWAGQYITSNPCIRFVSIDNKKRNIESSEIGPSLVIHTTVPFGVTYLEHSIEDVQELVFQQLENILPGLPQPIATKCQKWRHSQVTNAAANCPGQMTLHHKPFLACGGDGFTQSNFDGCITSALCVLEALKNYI
Chain of UniProt P23141 (whole entry, looked up): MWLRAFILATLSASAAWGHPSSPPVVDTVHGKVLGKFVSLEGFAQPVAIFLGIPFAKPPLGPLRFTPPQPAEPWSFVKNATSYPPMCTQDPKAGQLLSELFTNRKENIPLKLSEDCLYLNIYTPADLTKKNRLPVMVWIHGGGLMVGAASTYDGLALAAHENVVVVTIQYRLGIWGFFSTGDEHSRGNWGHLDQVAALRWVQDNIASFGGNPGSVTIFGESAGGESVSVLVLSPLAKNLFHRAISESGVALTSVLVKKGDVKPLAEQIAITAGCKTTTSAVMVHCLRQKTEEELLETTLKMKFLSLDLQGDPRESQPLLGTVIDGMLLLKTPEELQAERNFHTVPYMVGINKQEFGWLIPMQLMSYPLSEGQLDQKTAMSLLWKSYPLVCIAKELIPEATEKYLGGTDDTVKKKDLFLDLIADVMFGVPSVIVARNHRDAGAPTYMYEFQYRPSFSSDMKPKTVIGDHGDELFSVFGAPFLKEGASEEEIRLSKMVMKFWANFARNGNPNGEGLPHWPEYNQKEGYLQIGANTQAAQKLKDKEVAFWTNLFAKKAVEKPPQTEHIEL
Chain of UniProt P37136 (whole entry, looked up): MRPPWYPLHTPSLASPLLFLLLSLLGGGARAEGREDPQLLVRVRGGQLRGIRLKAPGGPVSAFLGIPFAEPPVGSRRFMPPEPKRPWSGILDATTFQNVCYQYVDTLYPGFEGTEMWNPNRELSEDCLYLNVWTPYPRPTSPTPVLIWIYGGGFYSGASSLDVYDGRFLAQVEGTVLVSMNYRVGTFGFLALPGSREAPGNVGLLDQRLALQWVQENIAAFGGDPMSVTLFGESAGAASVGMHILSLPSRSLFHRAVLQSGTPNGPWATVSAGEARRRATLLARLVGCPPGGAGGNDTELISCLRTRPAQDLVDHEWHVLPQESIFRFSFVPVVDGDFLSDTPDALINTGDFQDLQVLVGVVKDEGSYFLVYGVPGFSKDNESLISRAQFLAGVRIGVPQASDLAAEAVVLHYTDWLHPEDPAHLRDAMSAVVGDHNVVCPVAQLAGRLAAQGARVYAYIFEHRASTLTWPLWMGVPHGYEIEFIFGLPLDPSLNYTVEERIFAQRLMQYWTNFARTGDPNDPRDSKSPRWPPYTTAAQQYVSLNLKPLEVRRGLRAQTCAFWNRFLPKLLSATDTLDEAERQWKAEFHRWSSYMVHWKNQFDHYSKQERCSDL
Chain of UniProt P16662 (whole entry, looked up): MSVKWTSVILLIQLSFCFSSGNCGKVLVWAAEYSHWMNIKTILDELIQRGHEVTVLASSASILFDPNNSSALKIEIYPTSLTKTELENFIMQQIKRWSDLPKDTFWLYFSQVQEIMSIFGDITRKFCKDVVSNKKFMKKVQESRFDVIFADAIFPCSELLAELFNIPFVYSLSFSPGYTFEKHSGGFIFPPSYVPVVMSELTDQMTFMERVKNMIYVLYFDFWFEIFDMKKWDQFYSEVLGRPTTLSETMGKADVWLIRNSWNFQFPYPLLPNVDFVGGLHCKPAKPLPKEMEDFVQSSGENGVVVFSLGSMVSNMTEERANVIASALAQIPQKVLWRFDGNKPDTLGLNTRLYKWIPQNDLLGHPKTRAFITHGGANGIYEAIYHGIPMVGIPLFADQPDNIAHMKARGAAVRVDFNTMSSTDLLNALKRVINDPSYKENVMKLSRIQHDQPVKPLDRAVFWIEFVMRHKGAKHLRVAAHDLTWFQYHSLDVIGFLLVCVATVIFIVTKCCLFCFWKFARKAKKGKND
Chain of UniProt P50052 (whole entry, looked up): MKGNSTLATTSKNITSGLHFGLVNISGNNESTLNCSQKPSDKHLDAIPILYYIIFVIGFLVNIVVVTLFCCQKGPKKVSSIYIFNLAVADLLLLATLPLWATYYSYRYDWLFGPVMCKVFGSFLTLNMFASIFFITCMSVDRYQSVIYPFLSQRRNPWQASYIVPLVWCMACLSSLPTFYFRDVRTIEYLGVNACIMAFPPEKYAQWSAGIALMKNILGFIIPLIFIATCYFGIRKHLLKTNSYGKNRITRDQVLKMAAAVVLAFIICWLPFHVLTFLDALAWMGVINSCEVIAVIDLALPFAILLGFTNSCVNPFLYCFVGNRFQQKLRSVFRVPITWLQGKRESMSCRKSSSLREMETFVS
Chain of UniProt P42574 (whole entry, looked up): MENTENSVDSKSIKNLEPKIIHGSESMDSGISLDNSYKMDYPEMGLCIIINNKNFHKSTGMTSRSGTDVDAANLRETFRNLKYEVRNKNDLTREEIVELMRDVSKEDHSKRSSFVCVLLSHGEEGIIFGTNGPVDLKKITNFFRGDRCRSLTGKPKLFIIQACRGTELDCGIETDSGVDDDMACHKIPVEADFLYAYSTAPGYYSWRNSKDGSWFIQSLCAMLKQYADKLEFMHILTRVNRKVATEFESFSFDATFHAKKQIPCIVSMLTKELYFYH
Chain of UniProt P41143 (whole entry, looked up): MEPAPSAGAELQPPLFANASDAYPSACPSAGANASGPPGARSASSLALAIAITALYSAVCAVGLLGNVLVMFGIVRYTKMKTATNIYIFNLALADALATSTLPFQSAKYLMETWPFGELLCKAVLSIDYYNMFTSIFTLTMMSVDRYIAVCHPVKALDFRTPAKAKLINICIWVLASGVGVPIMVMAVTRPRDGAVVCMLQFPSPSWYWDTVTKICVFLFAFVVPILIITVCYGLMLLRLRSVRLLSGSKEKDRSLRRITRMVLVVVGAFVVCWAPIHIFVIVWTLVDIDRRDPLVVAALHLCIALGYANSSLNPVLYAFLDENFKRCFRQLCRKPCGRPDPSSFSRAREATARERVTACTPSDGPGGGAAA
Chain of UniProt P30542 (whole entry, looked up): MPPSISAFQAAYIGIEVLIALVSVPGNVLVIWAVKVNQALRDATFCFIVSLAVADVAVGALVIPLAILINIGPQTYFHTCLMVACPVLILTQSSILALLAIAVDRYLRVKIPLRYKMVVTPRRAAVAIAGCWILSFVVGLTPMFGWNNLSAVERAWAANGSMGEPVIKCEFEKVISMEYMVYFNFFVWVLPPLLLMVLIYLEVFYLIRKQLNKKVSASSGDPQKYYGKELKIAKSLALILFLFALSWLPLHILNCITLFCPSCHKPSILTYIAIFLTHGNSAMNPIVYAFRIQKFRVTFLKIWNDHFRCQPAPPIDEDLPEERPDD
Chain of UniProt P55210 (whole entry, looked up): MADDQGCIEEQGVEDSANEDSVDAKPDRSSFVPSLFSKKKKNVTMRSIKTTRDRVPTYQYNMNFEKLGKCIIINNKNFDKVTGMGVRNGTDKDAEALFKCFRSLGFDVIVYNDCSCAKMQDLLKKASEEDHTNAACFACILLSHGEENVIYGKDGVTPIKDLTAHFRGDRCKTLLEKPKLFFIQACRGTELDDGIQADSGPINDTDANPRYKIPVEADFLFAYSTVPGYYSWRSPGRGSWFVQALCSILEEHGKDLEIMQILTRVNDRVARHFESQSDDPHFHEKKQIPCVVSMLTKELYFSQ
Chain of UniProt P11712 (whole entry, looked up): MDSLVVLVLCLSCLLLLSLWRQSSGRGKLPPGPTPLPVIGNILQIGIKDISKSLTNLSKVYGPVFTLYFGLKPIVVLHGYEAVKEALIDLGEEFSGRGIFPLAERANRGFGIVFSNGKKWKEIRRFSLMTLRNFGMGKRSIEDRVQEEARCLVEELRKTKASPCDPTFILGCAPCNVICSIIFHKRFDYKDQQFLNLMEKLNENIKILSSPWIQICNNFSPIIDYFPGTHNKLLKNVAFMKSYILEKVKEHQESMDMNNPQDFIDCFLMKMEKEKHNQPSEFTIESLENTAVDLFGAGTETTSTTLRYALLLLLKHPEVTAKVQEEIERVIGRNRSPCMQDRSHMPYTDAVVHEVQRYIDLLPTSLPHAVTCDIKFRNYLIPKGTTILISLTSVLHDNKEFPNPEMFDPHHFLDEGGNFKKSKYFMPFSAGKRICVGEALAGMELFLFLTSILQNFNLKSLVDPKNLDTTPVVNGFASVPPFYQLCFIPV

Substance = ADP-ribose; target or system = Renalase (RNLS, Homo sapiens, UniProt Q5VYX0); test = reductive half-reaction, inhibitor; conditions = with: 6-hydro-NAD 173 µM; quantity = Kd; value = 12400 µM
Substance = deucravacitinib; test = multiple ascending dose; test system = healthy human; conditions = oral, 12 mg twice daily; quantity = subjects with influenza-like illness; value = 11.1%
Substance = mitragynine; target or system = Cytochrome P450 2C9 (CYP2C9, Homo sapiens, UniProt P11712); test = diclofenac 4'-hydroxylation, inhibitor; test system = human liver microsomes; quantity = IC50; value = > 45 µM
Substance = evodiamine; target or system = BCHE; test = enzyme activity, inhibitor, fluorescence; quantity = IC50; value = 19.5 ± 4.1 µM
Substance = corynantheidine; target or system = Liver carboxylesterase 1 (CES1, Homo sapiens, UniProt P23141); test = enzyme activity, inhibitor; conditions = with: oseltamivir substrate; quantity = Ki; value = 12.5 µM
Substance = phoxim-oxon; target or system = Acetylcholinesterase (Ache, Rattus norvegicus, UniProt P37136); test = inhibitor; test system = rat, postnatal day 12, rat brain homogenate; conditions = 15 min, 37 °C; quantity = IC50; value = 0.052 µM
Substance = benzalkonium bromide; target or system = BCHE; test = enzyme activity, inhibitor; quantity = IC50; value = 11.1 ± 3.12 µM
Substance = maraviroc; test system = unbuffered water; conditions = 20 °C; quantity = water solubility; value = ~1 mg/mL
Substance = SNC80; target or system = Delta-type opioid receptor, with β-arrestin1 (OPRD1, Homo sapiens, UniProt P41143); test = β-arrestin1 recruitment, agonist; quantity = EC50; value = 0.0586 µM
Substance = ristocetin; target or system = Endolysin (Enterobacteria phage T4, UniProt P00720, C54T/C97A/L164A); test = SPR; conditions = 25 °C, T4 lysozyme fusion; quantity = Kd; value = 2.8 ± 0.2 µM
Substance = human angiotensin II; target or system = Type-2 angiotensin II receptor (AGTR2, Homo sapiens, UniProt P50052); test = radioligand binding; conditions = concentration not given; quantity = inhibition; value = 100%
Substance = buprenorphine hydrochloride; target or system = UDP-glucuronosyltransferase 2B7 (UGT2B7, Homo sapiens, UniProt P16662); test = 4-MU glucuronidation, inhibitor; conditions = with: 4-MU 350 µM; quantity = IC50; value = 5.14 ± 1.3 µM
Substance = R(-)-PIA; target or system = Adenosine receptor A1 (ADORA1, Homo sapiens, UniProt P30542); test = radioligand binding; quantity = IC50; value = 0.36 µM
Substance = Ac-DEVD-CHO; target or system = Caspase-3 (CASP3, Homo sapiens, UniProt P42574); test = inhibitor; quantity = IC50; value = 0.00273 µM
Substance = Ac-DEVD-CHO; target or system = Caspase-7 (CASP7, Homo sapiens, UniProt P55210); test = enzyme activity; quantity = IC50; value = 0.00342 µM
Substance = forsythoside B; target or system = L-lactate dehydrogenase A chain (LDHA, Homo sapiens, UniProt P00338); test = enzyme activity, inhibitor; quantity = IC50; value = 225 ± 19.7 µM

Some of these lines once more:
Substance = deucravacitinib; test = multiple ascending dose; test system = healthy human; conditions = oral, 12 mg twice daily; quantity = subjects with influenza-like illness; value = 11.1%
